{"data": "Measured values pooled from the literature", "Methyl-accepting chemotaxis protein McpA ligand-binding domain": "Methyl-accepting chemotaxis protein McpA, ligand-binding domain (Bacillus velezensis, UniProt A7Z835)", "SCRIB PDZ3 domain": "Protein scribble homolog, PDZ3 domain (SCRIB, Homo sapiens, UniProt Q14160)", "HDAC6 ZnF-UBD domain": "Protein deacetylase HDAC6, ZnF-UBD domain (HDAC6, Homo sapiens, UniProt Q9UBN7)", "USP13 ZnF-UBD domain": "Ubiquitin carboxyl-terminal hydrolase 13, ZnF-UBD domain (USP13, Homo sapiens, UniProt Q92995)", "HDAC6": "Protein deacetylase HDAC6 (HDAC6, Homo sapiens, UniProt Q9UBN7)", "note": "Compare with care: the assays were run in different laboratories. Values joined by “and” are separate records of one study, mostly repeats; a detail may differ. Numbers after ± are the reported error.", "sequence of UniProt Q9UBN7 (whole entry, looked up)": "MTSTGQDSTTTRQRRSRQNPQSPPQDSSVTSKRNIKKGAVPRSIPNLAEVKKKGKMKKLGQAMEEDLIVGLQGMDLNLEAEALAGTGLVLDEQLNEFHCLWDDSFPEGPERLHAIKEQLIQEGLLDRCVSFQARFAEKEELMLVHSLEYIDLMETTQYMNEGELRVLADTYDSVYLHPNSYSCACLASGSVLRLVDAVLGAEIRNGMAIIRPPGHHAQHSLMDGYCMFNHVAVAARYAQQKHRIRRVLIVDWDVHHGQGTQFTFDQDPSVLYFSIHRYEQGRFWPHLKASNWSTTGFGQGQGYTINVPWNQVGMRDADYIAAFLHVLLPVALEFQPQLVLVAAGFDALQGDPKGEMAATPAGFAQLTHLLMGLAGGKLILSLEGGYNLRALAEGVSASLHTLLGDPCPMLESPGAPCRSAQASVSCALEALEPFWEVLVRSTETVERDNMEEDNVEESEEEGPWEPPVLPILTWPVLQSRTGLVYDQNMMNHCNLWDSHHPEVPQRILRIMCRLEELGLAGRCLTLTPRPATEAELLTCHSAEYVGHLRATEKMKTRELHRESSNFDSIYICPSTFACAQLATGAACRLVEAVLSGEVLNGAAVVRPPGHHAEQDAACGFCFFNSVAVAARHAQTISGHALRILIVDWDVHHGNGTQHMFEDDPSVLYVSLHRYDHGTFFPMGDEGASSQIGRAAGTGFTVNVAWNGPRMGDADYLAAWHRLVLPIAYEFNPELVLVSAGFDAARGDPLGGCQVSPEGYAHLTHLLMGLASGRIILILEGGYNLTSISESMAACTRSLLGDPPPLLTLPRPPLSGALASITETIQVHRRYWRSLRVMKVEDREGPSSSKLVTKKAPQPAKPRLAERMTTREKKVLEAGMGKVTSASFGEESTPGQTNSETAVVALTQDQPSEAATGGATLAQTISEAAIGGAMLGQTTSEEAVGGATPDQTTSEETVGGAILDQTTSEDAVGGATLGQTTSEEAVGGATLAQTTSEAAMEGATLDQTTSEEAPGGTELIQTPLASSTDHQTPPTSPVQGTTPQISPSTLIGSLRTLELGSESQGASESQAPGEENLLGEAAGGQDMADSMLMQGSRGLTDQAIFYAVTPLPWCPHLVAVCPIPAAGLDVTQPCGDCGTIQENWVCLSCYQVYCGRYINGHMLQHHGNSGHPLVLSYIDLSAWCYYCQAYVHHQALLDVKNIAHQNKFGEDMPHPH", "sequence of UniProt Q14160 (whole entry, looked up)": "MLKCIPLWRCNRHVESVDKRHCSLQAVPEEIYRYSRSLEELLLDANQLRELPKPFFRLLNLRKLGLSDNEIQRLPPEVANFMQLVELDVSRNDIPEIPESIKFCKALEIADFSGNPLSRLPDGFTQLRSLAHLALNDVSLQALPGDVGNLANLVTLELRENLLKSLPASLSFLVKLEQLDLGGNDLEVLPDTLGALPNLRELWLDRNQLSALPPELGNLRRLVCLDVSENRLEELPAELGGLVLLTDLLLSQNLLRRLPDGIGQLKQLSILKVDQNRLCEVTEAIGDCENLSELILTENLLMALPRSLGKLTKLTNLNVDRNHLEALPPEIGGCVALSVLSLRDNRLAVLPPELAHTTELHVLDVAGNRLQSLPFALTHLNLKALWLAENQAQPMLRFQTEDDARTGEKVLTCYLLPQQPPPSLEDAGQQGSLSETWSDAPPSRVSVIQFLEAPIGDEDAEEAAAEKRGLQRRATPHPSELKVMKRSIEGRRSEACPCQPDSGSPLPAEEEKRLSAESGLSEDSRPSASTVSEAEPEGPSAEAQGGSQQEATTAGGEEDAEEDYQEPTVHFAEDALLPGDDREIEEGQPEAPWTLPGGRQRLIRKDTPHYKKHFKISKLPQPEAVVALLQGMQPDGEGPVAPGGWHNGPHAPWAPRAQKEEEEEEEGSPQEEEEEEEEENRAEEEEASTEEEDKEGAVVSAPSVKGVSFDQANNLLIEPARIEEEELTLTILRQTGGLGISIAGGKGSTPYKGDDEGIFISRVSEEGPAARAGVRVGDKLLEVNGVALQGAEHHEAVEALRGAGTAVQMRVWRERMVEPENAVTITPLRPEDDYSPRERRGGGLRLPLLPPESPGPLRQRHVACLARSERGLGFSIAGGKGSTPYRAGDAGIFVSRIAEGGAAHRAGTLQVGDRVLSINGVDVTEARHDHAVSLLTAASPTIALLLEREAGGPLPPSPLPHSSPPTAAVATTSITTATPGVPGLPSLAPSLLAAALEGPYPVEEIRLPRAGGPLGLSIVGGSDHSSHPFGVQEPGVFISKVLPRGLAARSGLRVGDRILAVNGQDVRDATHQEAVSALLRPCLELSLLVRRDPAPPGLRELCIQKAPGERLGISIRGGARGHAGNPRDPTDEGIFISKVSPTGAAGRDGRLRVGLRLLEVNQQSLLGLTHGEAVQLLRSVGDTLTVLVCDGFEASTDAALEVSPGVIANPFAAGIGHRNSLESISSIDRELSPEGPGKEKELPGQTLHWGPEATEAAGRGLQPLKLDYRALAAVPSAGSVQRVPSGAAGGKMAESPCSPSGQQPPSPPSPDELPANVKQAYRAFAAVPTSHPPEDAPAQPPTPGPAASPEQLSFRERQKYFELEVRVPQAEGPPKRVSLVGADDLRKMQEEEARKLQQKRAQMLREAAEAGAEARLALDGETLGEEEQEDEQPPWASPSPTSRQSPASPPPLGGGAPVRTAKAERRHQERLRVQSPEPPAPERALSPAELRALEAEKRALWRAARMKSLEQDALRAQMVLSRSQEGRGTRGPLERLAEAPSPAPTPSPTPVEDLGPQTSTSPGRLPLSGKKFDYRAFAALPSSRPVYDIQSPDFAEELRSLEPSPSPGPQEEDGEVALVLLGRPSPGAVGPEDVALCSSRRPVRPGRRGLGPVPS", "sequence of UniProt Q92995 (whole entry, looked up)": "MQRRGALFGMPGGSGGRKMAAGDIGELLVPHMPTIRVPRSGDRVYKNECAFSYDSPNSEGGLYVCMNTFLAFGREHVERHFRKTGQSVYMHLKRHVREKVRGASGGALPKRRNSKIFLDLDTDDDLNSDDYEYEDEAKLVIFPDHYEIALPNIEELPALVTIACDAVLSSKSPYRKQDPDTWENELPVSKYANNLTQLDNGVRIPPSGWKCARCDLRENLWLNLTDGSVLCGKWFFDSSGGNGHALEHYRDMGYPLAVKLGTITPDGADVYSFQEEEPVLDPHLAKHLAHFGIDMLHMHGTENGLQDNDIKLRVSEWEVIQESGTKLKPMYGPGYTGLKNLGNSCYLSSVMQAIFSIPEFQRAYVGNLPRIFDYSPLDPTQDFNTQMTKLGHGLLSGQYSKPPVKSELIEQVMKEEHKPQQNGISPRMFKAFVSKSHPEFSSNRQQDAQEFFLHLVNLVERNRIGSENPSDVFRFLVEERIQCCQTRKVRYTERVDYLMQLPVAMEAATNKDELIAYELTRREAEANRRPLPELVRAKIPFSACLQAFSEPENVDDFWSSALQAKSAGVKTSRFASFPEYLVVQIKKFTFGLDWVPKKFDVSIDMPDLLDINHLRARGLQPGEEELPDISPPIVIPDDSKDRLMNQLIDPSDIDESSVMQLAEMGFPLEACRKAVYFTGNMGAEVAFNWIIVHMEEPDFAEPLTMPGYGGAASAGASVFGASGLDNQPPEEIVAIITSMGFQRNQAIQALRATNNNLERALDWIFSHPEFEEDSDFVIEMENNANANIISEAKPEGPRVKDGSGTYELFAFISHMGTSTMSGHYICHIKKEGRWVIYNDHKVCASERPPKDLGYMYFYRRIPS", "sequence of UniProt Q16774 (whole entry, looked up)": "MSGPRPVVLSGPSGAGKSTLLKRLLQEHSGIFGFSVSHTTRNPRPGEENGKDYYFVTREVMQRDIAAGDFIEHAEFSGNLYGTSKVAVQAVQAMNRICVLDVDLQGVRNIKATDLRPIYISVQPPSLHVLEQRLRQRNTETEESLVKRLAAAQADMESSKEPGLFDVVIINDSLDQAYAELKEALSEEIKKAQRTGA", "sequence of UniProt Q8TF20 (whole entry, looked up)": "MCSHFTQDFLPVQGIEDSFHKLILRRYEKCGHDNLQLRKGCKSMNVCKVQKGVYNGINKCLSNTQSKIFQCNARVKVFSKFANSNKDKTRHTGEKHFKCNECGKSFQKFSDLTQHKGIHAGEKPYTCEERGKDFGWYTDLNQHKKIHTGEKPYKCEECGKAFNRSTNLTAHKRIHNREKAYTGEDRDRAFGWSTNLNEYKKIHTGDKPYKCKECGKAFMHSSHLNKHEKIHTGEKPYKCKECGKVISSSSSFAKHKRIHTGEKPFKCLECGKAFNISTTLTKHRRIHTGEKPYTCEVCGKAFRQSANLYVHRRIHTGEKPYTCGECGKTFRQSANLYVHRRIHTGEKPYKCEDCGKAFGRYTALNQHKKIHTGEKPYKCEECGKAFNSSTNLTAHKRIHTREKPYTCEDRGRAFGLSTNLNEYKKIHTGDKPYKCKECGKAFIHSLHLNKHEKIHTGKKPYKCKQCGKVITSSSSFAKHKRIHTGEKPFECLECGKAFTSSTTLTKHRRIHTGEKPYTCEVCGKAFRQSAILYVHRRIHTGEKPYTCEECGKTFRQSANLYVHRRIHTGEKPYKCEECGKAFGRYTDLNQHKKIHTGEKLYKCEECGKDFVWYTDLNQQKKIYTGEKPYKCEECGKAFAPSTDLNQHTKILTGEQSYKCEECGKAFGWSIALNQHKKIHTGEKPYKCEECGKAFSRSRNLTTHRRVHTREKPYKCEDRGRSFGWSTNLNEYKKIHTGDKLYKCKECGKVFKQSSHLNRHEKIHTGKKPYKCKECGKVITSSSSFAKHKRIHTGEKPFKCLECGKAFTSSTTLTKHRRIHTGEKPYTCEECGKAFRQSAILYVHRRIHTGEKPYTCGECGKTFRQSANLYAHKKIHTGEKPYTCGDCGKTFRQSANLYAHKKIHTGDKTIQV", "sequence of UniProt P02754 (whole entry, looked up)": "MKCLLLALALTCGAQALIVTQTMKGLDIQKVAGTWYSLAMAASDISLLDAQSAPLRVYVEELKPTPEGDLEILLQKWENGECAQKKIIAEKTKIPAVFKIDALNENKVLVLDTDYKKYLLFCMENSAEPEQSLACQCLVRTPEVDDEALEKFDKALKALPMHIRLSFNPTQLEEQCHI"}
{"SMILES": "CC[C@H](C)[C@H](NC(=O)[C@H](CCCNC(=N)N)NC(=O)[C@H](CCCCN)NC(=O)[C@@H]1CCCN1C(=O)[C@@H](N)CO)C(=O)N[C@@H](C)C(=O)O", "tested on": "N-terminal Xaa-Pro-Lys N-methyltransferase 1 (Homo sapiens, UniProt Q9BV86, D177A)", "test": "ITC", "setting": "25 °C, with: peptide", "endpoint": "Kd", "result": "32 µM"}
{"SMILES": "NCCCCCC(=O)N1CCc2cc(NC(=O)c3ccc(CN(C(=O)c4ccc5c(c4)OCC(=O)N5)C4CC4)cc3)ccc2C1", "tested on": "Histone-lysine N-methyltransferase NSD2, PWWP1 domain (NSD2, Homo sapiens, UniProt O96028)", "test": "SPR single-cycle kinetics", "setting": "pH 7.4, 20 °C, 0.5% DMSO", "endpoint": "Kd", "result": "0.076 ± 0.004 µM"}
{"SMILES": "O=C(O)C(=O)O", "tested on": "Methyl-accepting chemotaxis protein McpA ligand-binding domain", "test": "binding, biolayer interferometry", "setting": "25 °C, 1:1 binding model", "endpoint": "Kd", "result": "2.89 ± 0.21 µM"}
{"SMILES": "Cn1cc(-c2ccc(-c3cncc(Cl)c3N3CCC4(CCNC4=O)CC3)cc2)cn1", "tested on": "COLO 205", "test": "gene expression, microarray, measured: LCN2 mRNA", "setting": "concentration not given, 2 h", "how to read": "reference: untreated cells", "endpoint": "log2 fold change", "result": 2.21}
{"SMILES": "CN(C)C(=O)c1cc2cnc(Nc3ccc(C(=O)NCCCCCCOc4cccc5c4C(=O)N(C4CCC(=O)NC4=O)C5=O)cc3)nc2n1C1CCCC1 (stereo not shown)", "tested on": "Aurora kinase A, with N-Myc (AURKA, Homo sapiens, UniProt O14965, C290A/C393S)", "test": "ternary complex binding, biolayer interferometry", "setting": "steady-state", "endpoint": "Kd", "result": "0.0195 µM"}
{"SMILES": "OC[C@H]1OC(O)[C@@H](O)[C@@H](O)[C@@H]1O (stereo partly shown)", "tested on": "Methyl-accepting chemotaxis protein McpA ligand-binding domain", "test": "binding, biolayer interferometry", "setting": "25 °C, 1:1 binding model", "endpoint": "Kd", "result": "28.6 ± 2.22 µM"}
{"SMILES": "CC(C)C[C@H](NC(=O)[C@H](Cc1ccc(O)cc1)NC(=O)[C@H](CO)NC(=O)CNC(=O)[C@H](CO)NC(=O)[C@@H](N)Cc1c[nH]cn1)C(=O)N[C@H](C(=O)N[C@H](C(=O)N[C@@H](CO)C(=O)N[C@H](C(=O)O)C(C)C)[C@@H](C)O)C(C)C", "tested on": "SCRIB PDZ3 domain", "test": "binding, fluorescence polarization", "test system": "solution", "setting": "Scribble PDZ3 domain", "endpoint": "Kd", "result": "6.7 µM"}
{"SMILES": "O=C(O)Cc1cccnc1", "tested on": "HDAC6 ZnF-UBD domain", "endpoint": "Kd", "result": "> 1000 µM"}
{"SMILES": "CC1=C(/C=C/C(C)=C/C=C/C(C)=C/C=C/C=C(C)/C=C/C=C(C)/C=C/C2=C(C)CCCC2(C)C)C(C)(C)CCC1", "tested on": "Beta-lactoglobulin (LGB, Bos taurus, UniProt P02754)", "test": "binding, fluorescence quenching", "test system": "PBS", "setting": "30 min, 303 K", "endpoint": "Kd", "result": "0.0153 µM"}
{"SMILES": "O=C(O)/C=C/C(=O)O", "tested on": "Methyl-accepting chemotaxis protein McpA ligand-binding domain", "test": "binding, biolayer interferometry", "setting": "25 °C, 1:1 binding model", "endpoint": "Kd", "result": "22.2 ± 1.32 µM"}
{"SMILES": "O=[N+]([O-])c1cc(C(F)(F)F)ccc1NCc1ccsc1", "tested on": "Endothelial PAS domain-containing protein 1, PAS-B domain (EPAS1, Homo sapiens, UniProt Q99814, N288Q)", "test": "ITC, reverse mode", "setting": "25 °C", "endpoint": "Kd", "result": "0.75 ± 0.08 µM"}
{"SMILES": "CC(C)C[C@H](NC(=O)[C@@H](NC(=O)[C@H](CC(N)=O)NC(=O)[C@@H](N)CCCNC(=N)N)[C@@H](C)O)C(=O)N[C@@H](Cc1ccc(O)cc1)C(=O)N[C@@H](Cc1ccccc1)C(=O)N[C@@H](CO)C(=O)N[C@H](C(=O)N[C@@H](CC(=O)O)C(=O)N[C@H](C(=O)O)C(C)C)[C@@H](C)O", "tested on": "SCRIB PDZ3 domain", "test": "binding, fluorescence polarization", "test system": "solution", "setting": "Scribble PDZ3 domain", "endpoint": "Kd", "result": "2.9 µM"}
{"SMILES": "Nc1nnc(-c2ccccc2O)cc1N1CC2CCC(C1)N2c1ccnc(F)c1", "tested on": "SMARCA2 (Homo sapiens, UniProt P51531)", "test": "binding, NanoBRET tracer displacement", "test system": "permeabilized HEK293", "endpoint": "Kd", "result": "0.0058 ± 0.0011 µM"}
{"SMILES": "C[N+](C)(C)Cc1cccc(N=Nc2cccc(C[N+](C)(C)C)c2)c1", "tested on": "muscarinic receptor, Rana temporaria", "test": "antagonist, radioligand displacement", "test system": "ventricle homogenate", "setting": "24 °C, in the dark, with: [3H]N-methylscopolamine", "endpoint": "Kd", "result": "4.3 µM"}
{"SMILES": "O=C1CCC(=O)N(O)CCCCCNC(=O)CCC(=O)N(O)CCCCCNC(=O)CCC(=O)N(O)CCCCCN1", "tested on": "Iron(3+)-hydroxamate-binding protein YxeB (yxeB, Bacillus subtilis, UniProt P54941)", "test": "binding, Trp fluorescence quenching", "setting": "pH 7.4, with: yxeB 100 nM", "endpoint": "Kd", "result": "0.105 ± 0.022 µM"}
{"SMILES": "CC(C)[C@H](NC(=O)[C@H](Cc1ccc(O)cc1)NC(=O)[C@H](Cc1ccc(O)cc1)NC(=O)[C@@H]1CCCN1C(=O)[C@H](CCC(=O)O)NC(=O)[C@H](CCC(=O)O)NC(=O)[C@H](Cc1c[nH]c2ccccc12)NC(=O)[C@@H]1CCCN1C(=O)[C@@H](NC(=O)[C@H](CCC(N)=O)NC(=O)c1ccc2c(c1)C(=O)OC21c2ccc(O)cc2Oc2cc(O)ccc21)C(C)C)C(=O)N[C@H](C(=O)N[C@@H](CCCCN)C(=O)N[C@@H](CCCCN)C(=O)N[C@@H](CO)C(=O)N[C@@H](CO)C(=O)NCC(=O)NCC(N)=O)C(C)C", "test system": "human, plasma", "setting": "intravenous infusion, 100 mg, predose, day 1", "endpoint": "plasma concentration", "result": "not detected"}
{"SMILES": "Nc1ncnc2c1ncn2[C@@H]1O[C@H](COP(=O)(O)OP(=O)(O)OC[C@H]2OC(O)[C@H](O)[C@@H]2O)[C@@H](O)[C@H]1O (stereo partly shown)", "tested on": "Zinc finger protein 721 (ZNF721, Homo sapiens, UniProt Q8TF20)", "endpoint": "Kd", "result": "4.07 µM"}
{"SMILES": "C=CC(=O)N1CCN(c2nc(OC[C@@H]3CCCN3C)nc3c(F)c(-c4nc(N)cc(C)c4C(F)(F)F)c(Cl)cc23)[C@@H](C)C1", "tested on": "GTPase KRas, GDP-bound (KRAS, Homo sapiens, UniProt P01116, A146T)", "test": "binding, surface plasmon resonance", "endpoint": "Kd", "result": "1.04 ± 0.086 µM"}
{"SMILES": "CC(C)C[C@H](NC(=O)[C@H](Cc1ccccc1)NC(=O)[C@H](CO)NC(=O)[C@H](CC(=O)O)NC(=O)[C@H](CCC(=O)O)NC(=O)[C@@H](NC(=O)[C@H](CC(C)C)NC(=O)[C@H](CC(=O)O)NC(=O)[C@H](CO)NC(=O)[C@@H](N)CO)C(C)C)C(=O)O", "tested on": "SCRIB PDZ3 domain", "test": "binding, fluorescence polarization", "test system": "solution", "setting": "Scribble PDZ3 domain", "endpoint": "Kd", "result": "52 µM"}
{"SMILES": "O=C(O)CCOc1ccccc1", "tested on": "USP13 ZnF-UBD domain", "endpoint": "Kd", "result": "640 µM"}
{"SMILES": "O=C(O)CC(O)C(=O)O (stereo not shown)", "tested on": "Methyl-accepting chemotaxis protein McpA ligand-binding domain", "test": "binding, biolayer interferometry", "setting": "25 °C, 1:1 binding model", "endpoint": "Kd", "result": "4.02 ± 0.24 µM"}
{"SMILES": "O=C(O)CCN1C(=O)c2ccccc2S1(=O)=O", "tested on": "HDAC6 ZnF-UBD domain", "endpoint": "Kd", "result": "> 1000 µM"}
{"SMILES": "CCCCCCCCCCCCCCCC(=O)O", "tested on": "uncharacterized protein (Corynebacterium lipophiloflavum, UniProt C0XPZ5)", "test": "heme spectral shift, substrate, UV-visible spectral titration", "endpoint": "Kd", "result": "1.34 µM"}
{"SMILES": "CCCC(CCC)C(=O)O", "tested on": "HDAC6", "test": "inhibitor, competition pulldown", "test system": "SW620 and MV4-11 lysate", "setting": "1 h", "endpoint": "Kd", "result": "> 3020 µM"}
{"SMILES": "Nc1nc2c(ncn2[C@@H]2O[C@H](COP(=O)(O)OP(=O)(O)O)[C@@H](OP(=O)(O)OP(=O)(O)O)[C@H]2O)c(=O)[nH]1", "tested on": "Guanosine-inosine kinase (gsk, Escherichia coli, UniProt P0AEW6)", "test": "binding, ITC sequential two-site fit", "setting": "second weak site", "endpoint": "Kd", "result": "14 ± 2 µM"}
{"SMILES": "O=C(O)Cc1nc2ccccc2[nH]1", "tested on": "USP13 ZnF-UBD domain", "endpoint": "Kd", "result": "> 1000 µM"}
{"SMILES": "Cn1cc(-c2ccc(S(=O)(=O)n3ccc(/C=C/C(=O)Nc4ccccc4N)c3)cc2)cn1", "tested on": "HDAC6", "test": "inhibitor, competition pulldown", "test system": "SW620 and MV4-11 lysate", "setting": "1 h", "endpoint": "Kd", "result": "> 30.2 µM"}
{"SMILES": "N#Cc1c2n(c3c(=O)n(CC(=O)O)cnc13)CCCC2", "tested on": "HDAC6 ZnF-UBD domain", "endpoint": "Kd", "result": "105 µM"}
{"SMILES": "Nc1ncnc2c1ncn2[C@@H]1O[C@H](CO[P@](=O)(O)O[P@](=O)(O)O[P@@](=O)(O)S)[C@@H](O)[C@H]1O", "tested on": "GUK1 (Homo sapiens, UniProt Q16774)", "test": "ITC", "setting": "no ATPγS or ADP present", "endpoint": "Kd", "result": "43 µM and 42 µM"}
{"SMILES": "O=C(O)CNc1ncnc2ccccc12", "tested on": "HDAC6 ZnF-UBD domain", "endpoint": "Kd", "result": "> 1000 µM"}
{"SMILES": "O=C(O)CCO", "tested on": "Methyl-accepting chemotaxis protein McpA ligand-binding domain", "test": "binding, biolayer interferometry", "setting": "25 °C, 1:1 binding model", "endpoint": "Kd", "result": "58.5 ± 6.41 µM"}
{"note": "Excerpt of the above:"}
{"SMILES": "O=C(O)CCOc1ccccc1", "tested on": "USP13 ZnF-UBD domain", "endpoint": "Kd", "result": "640 µM"}
{"SMILES": "O=C(O)CC(O)C(=O)O (stereo not shown)", "tested on": "Methyl-accepting chemotaxis protein McpA ligand-binding domain", "test": "binding, biolayer interferometry", "setting": "25 °C, 1:1 binding model", "endpoint": "Kd", "result": "4.02 ± 0.24 µM"}
